Measured values of several laboratories.
Numbered parts are unrelated; each lists some results of a single study. ± marks the error that the study gave.
UniProt Q9ULD4, sequence (whole entry, looked up): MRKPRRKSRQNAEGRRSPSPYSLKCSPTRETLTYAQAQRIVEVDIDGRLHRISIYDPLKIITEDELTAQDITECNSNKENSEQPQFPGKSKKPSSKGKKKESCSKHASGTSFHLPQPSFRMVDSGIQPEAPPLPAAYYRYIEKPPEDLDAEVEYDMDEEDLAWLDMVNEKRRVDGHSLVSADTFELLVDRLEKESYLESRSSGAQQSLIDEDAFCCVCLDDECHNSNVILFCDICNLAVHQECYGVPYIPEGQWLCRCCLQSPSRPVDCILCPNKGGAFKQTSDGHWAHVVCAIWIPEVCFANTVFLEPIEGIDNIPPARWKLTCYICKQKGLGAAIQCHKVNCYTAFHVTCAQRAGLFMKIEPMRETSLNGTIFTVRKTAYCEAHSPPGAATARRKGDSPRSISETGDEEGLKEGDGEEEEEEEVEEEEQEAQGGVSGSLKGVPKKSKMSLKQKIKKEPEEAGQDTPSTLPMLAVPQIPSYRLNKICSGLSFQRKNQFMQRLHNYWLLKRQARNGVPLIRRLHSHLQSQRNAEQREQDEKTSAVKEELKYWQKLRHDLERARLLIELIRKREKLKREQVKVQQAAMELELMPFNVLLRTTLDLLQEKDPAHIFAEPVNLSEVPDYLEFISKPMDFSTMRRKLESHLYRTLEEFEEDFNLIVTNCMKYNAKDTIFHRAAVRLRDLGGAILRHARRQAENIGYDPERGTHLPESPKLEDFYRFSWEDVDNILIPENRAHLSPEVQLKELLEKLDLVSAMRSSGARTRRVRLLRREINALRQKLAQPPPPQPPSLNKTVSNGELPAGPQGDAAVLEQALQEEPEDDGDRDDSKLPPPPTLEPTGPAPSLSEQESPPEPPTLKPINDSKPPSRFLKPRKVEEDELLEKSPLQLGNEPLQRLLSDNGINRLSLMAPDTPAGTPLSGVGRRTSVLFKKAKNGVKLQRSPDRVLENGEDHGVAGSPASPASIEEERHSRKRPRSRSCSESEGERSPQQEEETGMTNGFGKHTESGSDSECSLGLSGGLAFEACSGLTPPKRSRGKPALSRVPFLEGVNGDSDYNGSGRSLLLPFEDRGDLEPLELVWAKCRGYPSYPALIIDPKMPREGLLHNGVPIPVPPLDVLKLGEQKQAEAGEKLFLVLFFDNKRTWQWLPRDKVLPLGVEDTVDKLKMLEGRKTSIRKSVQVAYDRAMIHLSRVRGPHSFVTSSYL
UniProt O15164, sequence (whole entry, looked up): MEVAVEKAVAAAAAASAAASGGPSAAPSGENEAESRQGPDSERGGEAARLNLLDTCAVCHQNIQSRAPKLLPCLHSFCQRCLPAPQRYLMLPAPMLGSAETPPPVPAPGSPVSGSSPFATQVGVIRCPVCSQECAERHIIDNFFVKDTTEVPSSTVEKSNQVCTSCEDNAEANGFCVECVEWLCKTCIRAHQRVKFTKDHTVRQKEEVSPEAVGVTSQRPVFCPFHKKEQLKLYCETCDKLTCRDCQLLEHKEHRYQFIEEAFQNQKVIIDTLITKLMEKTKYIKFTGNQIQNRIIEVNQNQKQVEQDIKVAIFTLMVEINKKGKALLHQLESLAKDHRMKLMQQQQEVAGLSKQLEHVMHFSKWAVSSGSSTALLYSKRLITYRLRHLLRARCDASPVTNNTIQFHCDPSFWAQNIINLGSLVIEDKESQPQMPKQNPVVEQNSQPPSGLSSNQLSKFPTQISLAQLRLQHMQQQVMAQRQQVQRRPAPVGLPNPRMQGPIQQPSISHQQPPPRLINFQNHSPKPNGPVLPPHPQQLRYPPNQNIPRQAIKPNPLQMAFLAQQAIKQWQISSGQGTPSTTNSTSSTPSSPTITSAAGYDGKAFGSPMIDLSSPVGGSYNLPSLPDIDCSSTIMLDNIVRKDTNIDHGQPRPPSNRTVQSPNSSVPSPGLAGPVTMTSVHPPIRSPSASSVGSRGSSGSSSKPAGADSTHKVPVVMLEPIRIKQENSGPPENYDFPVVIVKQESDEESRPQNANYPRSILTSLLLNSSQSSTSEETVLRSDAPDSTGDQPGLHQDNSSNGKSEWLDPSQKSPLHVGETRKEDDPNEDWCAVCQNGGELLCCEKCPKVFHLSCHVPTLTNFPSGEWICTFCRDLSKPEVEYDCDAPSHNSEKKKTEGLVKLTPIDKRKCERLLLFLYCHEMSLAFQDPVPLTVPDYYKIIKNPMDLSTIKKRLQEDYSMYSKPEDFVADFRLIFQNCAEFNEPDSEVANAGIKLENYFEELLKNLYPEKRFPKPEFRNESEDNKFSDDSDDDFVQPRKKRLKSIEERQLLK
UniProt P55201, sequence (whole entry, looked up): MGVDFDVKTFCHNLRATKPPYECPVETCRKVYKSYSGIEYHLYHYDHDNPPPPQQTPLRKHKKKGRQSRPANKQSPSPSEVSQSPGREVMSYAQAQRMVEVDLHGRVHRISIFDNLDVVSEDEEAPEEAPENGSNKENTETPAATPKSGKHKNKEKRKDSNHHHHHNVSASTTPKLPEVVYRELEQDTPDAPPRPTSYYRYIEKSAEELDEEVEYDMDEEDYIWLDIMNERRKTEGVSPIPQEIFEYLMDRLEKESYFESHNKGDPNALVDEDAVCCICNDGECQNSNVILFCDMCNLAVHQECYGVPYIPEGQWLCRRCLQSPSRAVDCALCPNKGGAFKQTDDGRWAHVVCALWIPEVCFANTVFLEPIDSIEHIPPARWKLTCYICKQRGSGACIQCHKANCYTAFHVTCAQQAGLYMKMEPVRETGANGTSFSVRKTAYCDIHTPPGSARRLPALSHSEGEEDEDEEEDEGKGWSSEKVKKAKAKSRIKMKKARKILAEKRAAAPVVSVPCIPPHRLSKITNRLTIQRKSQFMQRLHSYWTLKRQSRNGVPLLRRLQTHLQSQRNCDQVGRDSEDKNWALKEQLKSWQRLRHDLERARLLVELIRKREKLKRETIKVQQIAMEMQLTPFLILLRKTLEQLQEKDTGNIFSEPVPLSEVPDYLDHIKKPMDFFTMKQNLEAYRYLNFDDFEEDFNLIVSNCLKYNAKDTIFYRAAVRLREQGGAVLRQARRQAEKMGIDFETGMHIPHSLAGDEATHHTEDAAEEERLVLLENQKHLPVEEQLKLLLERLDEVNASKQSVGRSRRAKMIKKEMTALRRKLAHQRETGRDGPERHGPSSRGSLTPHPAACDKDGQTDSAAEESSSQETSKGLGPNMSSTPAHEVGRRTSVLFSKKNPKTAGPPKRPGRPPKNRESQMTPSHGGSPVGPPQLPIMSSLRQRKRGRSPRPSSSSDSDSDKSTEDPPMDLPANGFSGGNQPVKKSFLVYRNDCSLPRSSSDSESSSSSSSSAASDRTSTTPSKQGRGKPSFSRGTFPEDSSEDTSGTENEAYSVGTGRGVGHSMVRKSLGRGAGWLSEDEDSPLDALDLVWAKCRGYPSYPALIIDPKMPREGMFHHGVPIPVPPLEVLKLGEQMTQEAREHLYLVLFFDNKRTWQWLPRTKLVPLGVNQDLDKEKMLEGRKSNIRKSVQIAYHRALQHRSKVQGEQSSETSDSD
UniProt Q9H930, sequence (whole entry, looked up): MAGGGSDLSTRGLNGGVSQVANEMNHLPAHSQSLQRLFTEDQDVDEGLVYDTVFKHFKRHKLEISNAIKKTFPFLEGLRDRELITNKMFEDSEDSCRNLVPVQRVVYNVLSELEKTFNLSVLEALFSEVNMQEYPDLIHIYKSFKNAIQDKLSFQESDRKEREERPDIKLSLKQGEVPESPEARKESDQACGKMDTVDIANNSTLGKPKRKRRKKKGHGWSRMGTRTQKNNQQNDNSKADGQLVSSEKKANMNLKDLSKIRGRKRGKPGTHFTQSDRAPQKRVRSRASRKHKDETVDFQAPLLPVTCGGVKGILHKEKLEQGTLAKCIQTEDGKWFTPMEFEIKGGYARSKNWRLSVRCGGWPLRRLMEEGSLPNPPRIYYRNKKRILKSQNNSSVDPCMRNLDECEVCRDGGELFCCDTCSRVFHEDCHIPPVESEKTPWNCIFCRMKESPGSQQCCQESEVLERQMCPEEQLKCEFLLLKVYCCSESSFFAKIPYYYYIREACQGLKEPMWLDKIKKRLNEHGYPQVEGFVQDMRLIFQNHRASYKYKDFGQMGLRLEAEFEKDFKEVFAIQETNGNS

Series 1
Structure (SMILES): C[S+]([O-])c1ccc(-c2nc(-c3ccncc3)c(-c3ccc(F)cc3)[nH]2)cc1 (stereo not shown)
Observed: binding
Method: thermal shift
Concentration: 10 µM
Direction: higher = stronger binding
target | delta Tm [°C]
SP140L, PHD-bromodomain (Homo sapiens, UniProt Q9H930) | -0.41 ± 0.31
Protein polybromo-1, BD4 (PBRM1, Homo sapiens, UniProt Q86U86) | 0.6 ± 0.14
Transcription intermediary factor 1-alpha, PHD-bromodomain (TRIM24, Homo sapiens, UniProt O15164) | 0.92 ± 0.3
BRPF3 (Homo sapiens, UniProt Q9ULD4) | 0.66 ± 0.1
Peregrin, isoform A (BRPF1, Homo sapiens, UniProt P55201) | 0.66 ± 0.21

Series 2
Target: Ephrin type-A receptor 1 (EPHA1, Homo sapiens, UniProt P21709)
Observed: enzyme activity
Mode: inhibitor
Concentration: 0.5 µM
Relative to: control
Residues (P21709 1-976): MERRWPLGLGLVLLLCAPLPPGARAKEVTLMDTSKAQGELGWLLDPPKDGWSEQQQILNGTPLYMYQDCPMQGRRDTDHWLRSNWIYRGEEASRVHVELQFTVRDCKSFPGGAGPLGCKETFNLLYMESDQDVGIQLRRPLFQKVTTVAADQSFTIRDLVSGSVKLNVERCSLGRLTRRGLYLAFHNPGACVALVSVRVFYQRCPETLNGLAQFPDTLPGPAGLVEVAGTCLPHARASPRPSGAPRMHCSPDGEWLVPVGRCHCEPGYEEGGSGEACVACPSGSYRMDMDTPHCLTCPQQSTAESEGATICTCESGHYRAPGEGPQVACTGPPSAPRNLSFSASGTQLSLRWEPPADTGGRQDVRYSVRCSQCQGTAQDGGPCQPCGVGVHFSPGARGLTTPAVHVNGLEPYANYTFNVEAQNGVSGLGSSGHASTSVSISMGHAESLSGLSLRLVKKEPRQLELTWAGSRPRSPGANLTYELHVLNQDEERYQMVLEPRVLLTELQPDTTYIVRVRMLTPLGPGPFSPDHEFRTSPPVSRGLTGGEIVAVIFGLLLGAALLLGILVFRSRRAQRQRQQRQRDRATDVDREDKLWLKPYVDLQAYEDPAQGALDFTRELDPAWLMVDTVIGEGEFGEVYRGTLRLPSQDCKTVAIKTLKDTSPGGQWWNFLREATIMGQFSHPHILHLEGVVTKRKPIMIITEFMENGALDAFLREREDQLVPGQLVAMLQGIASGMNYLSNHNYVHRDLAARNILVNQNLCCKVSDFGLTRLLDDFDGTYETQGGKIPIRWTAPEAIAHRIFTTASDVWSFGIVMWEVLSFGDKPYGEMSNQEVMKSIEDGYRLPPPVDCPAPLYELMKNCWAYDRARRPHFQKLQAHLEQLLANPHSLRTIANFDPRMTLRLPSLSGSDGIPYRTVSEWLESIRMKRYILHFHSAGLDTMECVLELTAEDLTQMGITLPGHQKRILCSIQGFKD
Structure (SMILES) | remaining activity
O=c1cc(N2CCOCC2)oc2c1ccc1ccccc12 | 94.2%
CCC(=O)Nc1ccc2ncnc(Nc3cccc(Br)c3)c2c1 | 89.5%
CC(C)[C@H](CO)Nc1nc(Nc2cccc(Cl)c2)c2ncn(C(C)C)c2n1 | 98.3%
Cn1cnc2cc3c(Nc4cccc(Br)c4)ncnc3cc21 | 84.4%
Cc1ccc(NC(=O)c2ccc(CN3CCN(C)CC3)cc2)cc1Nc1nccc(-c2cccnc2)n1 | 99.9%
CN(C)CCCn1cc(C2=C(c3c[nH]c4ccccc34)C(=O)NC2=O)c2ccccc21 | 89.9%
O=C(Nc1ccc(Cl)cc1)c1ccccc1NCc1ccncc1 | 97%
COc1cc2ncnc(N3CCN(C(=O)Nc4ccc(Oc5ccccc5)cc4)CC3)c2cc1OC | 102%
CC(C)c1nn(-c2c(Cl)cccc2Cl)c2nc(Cc3ccc(OCCO)cc3)[nH]c(=O)c12 | 95%
CCN1/C(=C/C(C)=O)Sc2ccc(OC)cc21 | 95.8%
COc1ccc(Cl)cc1NC(=O)Nc1cc(C)nc2ccccc12 | 88.6%
Nc1[nH]nc2nnc(-c3c(-c4ccccc4)nn4ccccc34)cc12 | 92.6%
Cc1nc(Nc2ncc(C(=O)Nc3c(C)cccc3Cl)s2)cc(N2CCN(CCO)CC2)n1 | 2.72%
COc1cc2ncc(-c3ccccc3)nc2cc1OC | 95.8%
CC(=O)O/N=C1/C(c2c(O)[nH]c3cc(Br)ccc23)=Nc2ccccc21 | 83.2%
Cn1cc(/C=C2\C(=O)Nc3ccc(S(N)(=O)=O)cc32)c2ccccc21 | 101%
O=C1NC(=O)/C(=C/c2ccc3nccnc3c2)S1 | 91.8%
C[S+]([O-])c1ccc(-c2nc(-c3ccncc3)c(-c3ccc(F)cc3)[nH]2)cc1 (stereo not shown) | 97%
COc1ccc(-c2cnc3c(-c4ccsc4)cnn3c2)cc1 | 91.5%
CS(=O)(=O)CCNCc1ccc(-c2ccc3ncnc(Nc4ccc(OCc5cccc(F)c5)c(Cl)c4)c3c2)o1 | 99.3%
COc1cc2ncnc(Nc3ccc(OCc4ccccc4)cc3)c2cc1OC | 102%
CCOc1cc2ncnc(Nc3cccc(Br)c3)c2cc1OCC | 84.7%

Series 3
Target: Translocator protein (Tspo, Rattus norvegicus, UniProt P16257)
UniProt P16257, sequence (whole entry, looked up): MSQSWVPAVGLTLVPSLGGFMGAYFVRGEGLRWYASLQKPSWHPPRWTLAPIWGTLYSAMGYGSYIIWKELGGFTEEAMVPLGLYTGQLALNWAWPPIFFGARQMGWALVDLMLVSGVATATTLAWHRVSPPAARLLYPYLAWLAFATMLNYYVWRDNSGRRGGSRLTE
Observed: radioligand binding
Method: radioligand displacement
Concentration: 10 µM
SMILES | inhibition [%]
C[C@@H]1CN(c2cc(-c3n[nH]c4ccc(OC5(C)CC5)cc34)ncn2)C[C@H](C)O1 | 5.96
COc1cc(-c2cn(C3CCc4c(F)cccc4N(CC(F)(F)F)C3=O)nn2)ccc1-n1cnc(C)c1 (stereo not shown) | 8.82
Cc1cc2c(-c3ccco3)cnc(N[C@@H]3CCN(C)C[C@H]3C(=O)NC3CCCCC3)c2[nH]c1=O | 3.9
CC(C)(O)c1cncc(-c2nc3ccc(F)cc3n2C2CC2)c1 | -38
CNC(=O)c1cc(C(=O)N[C@H]2[C@@H]3COC[C@@H]32)cc2c1O[C@H](CF)[C@H]2c1ccccc1 | 9.06
CCC(=O)N[C@@H]1CC[C@H](C(=O)N(C)c2ccc(-c3nc4ccccc4o3)cc2)C1 | 5.21
CCOc1ccc(S(=O)(=O)Nc2ccc(Cl)cc2C#Cc2cnc(C(=O)O)cc2OC)c2ncccc12 | 45
O=C(NNS(=O)(=O)c1ccccc1)c1cc(-c2ccnnc2)ccc1F | -3.6
Nc1nc(NCc2ccccc2)nc(-c2ccccc2CO)n1 | 12.9
CO[C@H]1CC[C@H](CNc2ccc(S(=O)(=O)NC(=O)c3ccc(N4CCN(CC5=C(c6ccc(Cl)cc6)CC(C)(C)CC5)CC4)cc3Oc3cnc4[nH]ccc4c3)cc2[N+](=O)[O-])CC1 | 41.5
CN1CCN(C(=O)C(C)(C)c2ccc(C(=O)Nc3cn4cc(-c5cc(C(C)(C)C)cc(C(C)(C)C)c5)ccc4n3)cc2)CC1 | -6.1
COc1cc(N[C@@H]2CCCC[C@]2(O)C(F)(F)F)ccc1F | -1.71
Cc1noc([C@H]2C[C@@H](c3ccc(C(F)(F)F)cc3)CN(C(=O)N3CCS(=O)(=O)C3)C2)n1 | 7.2

Series 4
SMILES: COc1cc(C(=O)N2CCC(N3CCN(C)CC3)CC2)ccc1Nc1ncc2c(n1)N(C)c1ccccc1C(=O)N2C
Method: KINOMEscan
Concentration: 10 µM
Relative to: DMSO control
Direction: lower = stronger binding
target | binding [%]
ADCK4 | 94
MERTK | 100
CAMK1 | 55
SLK | 100
TYRO3 | 100
ITK | 82
MEK3 | 75
SRPK3 | 72
EPHB4 | 100
DYRK1A | 99
FLT4 | 100
PIM2 | 100
NEK1 | 83
ERN1 | 59
RIPK2 | 100
ULK3 | 100
LATS2 | 95
STK35 | 100

Some of these lines once more (series 3):
SMILES | inhibition [%]
Cc1noc([C@H]2C[C@@H](c3ccc(C(F)(F)F)cc3)CN(C(=O)N3CCS(=O)(=O)C3)C2)n1 | 7.2
CO[C@H]1CC[C@H](CNc2ccc(S(=O)(=O)NC(=O)c3ccc(N4CCN(CC5=C(c6ccc(Cl)cc6)CC(C)(C)CC5)CC4)cc3Oc3cnc4[nH]ccc4c3)cc2[N+](=O)[O-])CC1 | 41.5
CCOc1ccc(S(=O)(=O)Nc2ccc(Cl)cc2C#Cc2cnc(C(=O)O)cc2OC)c2ncccc12 | 45
CNC(=O)c1cc(C(=O)N[C@H]2[C@@H]3COC[C@@H]32)cc2c1O[C@H](CF)[C@H]2c1ccccc1 | 9.06
C[C@@H]1CN(c2cc(-c3n[nH]c4ccc(OC5(C)CC5)cc34)ncn2)C[C@H](C)O1 | 5.96
CN1CCN(C(=O)C(C)(C)c2ccc(C(=O)Nc3cn4cc(-c5cc(C(C)(C)C)cc(C(C)(C)C)c5)ccc4n3)cc2)CC1 | -6.1
O=C(NNS(=O)(=O)c1ccccc1)c1cc(-c2ccnnc2)ccc1F | -3.6
Nc1nc(NCc2ccccc2)nc(-c2ccccc2CO)n1 | 12.9
Cc1cc2c(-c3ccco3)cnc(N[C@@H]3CCN(C)C[C@H]3C(=O)NC3CCCCC3)c2[nH]c1=O | 3.9
